Values quoted from earlier work that unrelated publications cite.
± gives the spread as reported.
Sequence of UniProt Q9NWZ3 (whole entry, looked up): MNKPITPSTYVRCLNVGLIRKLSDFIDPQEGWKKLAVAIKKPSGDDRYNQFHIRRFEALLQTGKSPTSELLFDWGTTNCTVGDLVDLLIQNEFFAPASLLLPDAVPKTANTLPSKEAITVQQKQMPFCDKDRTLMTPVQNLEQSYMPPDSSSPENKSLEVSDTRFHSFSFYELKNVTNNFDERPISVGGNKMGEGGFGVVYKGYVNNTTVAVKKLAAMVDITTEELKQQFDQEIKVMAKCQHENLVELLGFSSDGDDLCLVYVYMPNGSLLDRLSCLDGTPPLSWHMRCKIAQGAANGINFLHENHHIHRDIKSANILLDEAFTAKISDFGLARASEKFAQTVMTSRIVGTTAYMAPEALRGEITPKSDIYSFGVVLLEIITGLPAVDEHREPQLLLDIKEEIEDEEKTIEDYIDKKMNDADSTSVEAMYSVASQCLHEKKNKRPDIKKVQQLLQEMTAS

CC(O)C(C)n1ncn(-c2ccc(N3CCN(c4ccc(OCC5COC(Cn6cncn6)(c6ccc(Cl)cc6Cl)O5)cc4)CC3)cc2)c1=O (stereo not shown)
kcat (CYP3A4): 0.02 min⁻¹

CC(C)n1cnc2c(Nc3cccc(Cl)c3)nc(NCCO)nc21
inhibition (CSNK1D; kinase activity, inhibitor; 0.5 µM): 51%

[Zn]
potentiating concentration (glycine receptor; biphasic modulator): < 10 µM

O=C(O)[C@H]1OC(O)[C@H](O)[C@@H](O)[C@@H]1O (mixture of isomers)
Km (anion exchanger, human; substrate; neutrophils): > 95000 µM

O=C1NC(=O)c2c1c1c3ccccc3[nH]c1n1cncc21
inhibition (CSNK1E; kinase activity, inhibitor; 0.5 µM): 81%

COc1ccccc1Oc1cccc(CN2CCC(NC(=O)C3CC(=O)Nc4ccccc43)CC2)c1 (stereo not shown)
EC50 (human CCR8 Y113A mutant (TM3); IP accumulation, agonist): > 10000 nM

CC(O)C(C)n1ncn(-c2ccc(N3CCN(c4ccc(OCC5COC(Cn6cncn6)(c6ccc(Cl)cc6Cl)O5)cc4)CC3)cc2)c1=O (stereo not shown)
Vmax (CYP3A4 human; substrate): 0.095 pmol/min/mg protein

C[C@]1(c2nc3c(C(N)=O)cccc3[nH]2)CCCN1
activity (SIRT2; concentration not given, vendor information): inactive

CCC(CC)C(=O)O
EC10 (HDAC; enzyme activity, inhibitor; day 10, unbound medium concentration): 2060 µM

CC(C)[C@H](CO)Nc1nc(Nc2cccc(Cl)c2)c2ncn(C(C)C)c2n1
inhibition (CSNK1D; kinase activity, inhibitor; concentration not given): 26%

CCCC(C)(C)C(=O)O
EC10 (histone deacetylase; enzyme activity, inhibitor; mouse embryonic stem cells; unbound medium concentration): 707 µM

Nc1ccc(C(=O)N[C@@H](CCC(=O)O)C(=O)O)cc1
Ki (Escherichia coli dihydrofolate reductase): 1.8 ± 0.1 mM

O=S(=O)(O)O
half-saturation constant (band 3 anion exchanger, human; anion transport; human red blood cells; pHo 5.5 and 9.0): 4 to 5 mM

CCO
Km (Escherichia coli AdhE; substrate): 10600 µM

CNC(C)C1CCC(N)C(OC2C(N)CC(N)C(OC3OCC(C)(O)C(NC)C3O)C2O)O1 (stereo not shown)
MIC (Klebsiella pneumoniae; clinical isolate RKI-No_600/16): ≤ 0.5 mg/L

Nc1ccn([C@H]2C[C@H](O)[C@@H](CO)O2)c(=O)n1
Vmax (cytidine deaminase (human); substrate; concentration not given, 37 °C): 45.5 U/mg

Nc1nc(Nc2ccc(S(N)(=O)=O)cc2)n(C(=S)Nc2c(F)cccc2F)n1
inhibition (CSNK1G1; kinase activity, inhibitor; 0.5 µM): 83%

COc1ccccc1Oc1cccc(CN2CCC3(CC2)C(=O)NCN3CCc2ccccc2)c1
EC50 (human CCR8 S289A mutant (TM7); IP accumulation, agonist): 16 nM

CC(C)(O/N=C(\C(=O)N[C@@H]1C(=O)N2C(C(=O)[O-])=C(C[N+]3(CCNC(=O)c4ccc(O)c(O)c4Cl)CCCC3)CS[C@H]12)c1csc(N)n1)C(=O)O
kcat (NDM-9; hydrolysis by enzyme, substrate): 420 min⁻¹

COc1ccccc1Oc1cccc(CN2CCC(O)(c3ccccc3C(=O)O)CC2)c1
EC50 (human CCR8 S110W mutant (TM3); IP accumulation, agonist): > 10000 nM

CCCCCC(CCC)C(=O)O (stereo not shown)
EC10 (HDAC; enzyme activity, inhibitor; day 10, unbound medium concentration): 13 µM

CCN(CC)CCCCNc1ncc2cc(-c3cc(OC)cc(OC)c3)c(NC(=O)NC(C)(C)C)nc2n1
IC50 (c-KIT; inhibitor): > 1000 nM

CNC(=O)c1c(C)oc2cc(Oc3ncnc4cc(OC)c(OC)cc34)ccc12
duration of inhibition (VEGFR-2 mouse; VEGFR-2 phosphorylation; mouse; oral, 2.5 mg/kg single dose): > 8 h

CC(C)[C@H](CO)Nc1nc(Nc2cc(N)cc(Cl)c2)c2ncn(C(C)C)c2n1
inhibition (CSNK1E; kinase activity, inhibitor; 0.5 µM): 17%

CCCC(CCC)C(=O)O
EC10 (histone deacetylase; enzyme activity, inhibitor; mouse embryonic stem cells; unbound medium concentration): 34 µM

c1cc(-c2cnn3cc(-c4ccc(OCCN5CCCCC5)cc4)cnc23)ccn1
inhibition (CSNK1G1; kinase activity, inhibitor; 0.5 µM): 11%

O=C(Nc1nc2ccccc2[nH]1)c1ccccc1
response (SUMO1 specific protease 6; 12.5 µM, PubChem AID 488915): 91%

CCCCCCCCCCCCC/C=C/[C@@H](O)[C@H](CO)NC(=O)CCCCCNc1ccc([N+](=O)[O-])c2nonc12
Km (inositol phosphorylceramide synthase, membrane-bound; added: ceramide substrate): 3 µM

CCCCC(C)C(=O)O (stereo not shown)
EC10 (histone deacetylase; enzyme activity, inhibitor; mouse embryonic stem cells; unbound medium concentration): 2050 µM

Cc1onc(-c2ccccc2)c1-c1ccc(S(N)(=O)=O)cc1
activity (NR4A1 (Nur77); cellular; concentration not given): inactive

Nc1cc(C(F)(F)F)c(-c2nc(N3CCOCC3)nc(N3CCOCC3)n2)cn1
remaining activity (Interleukin-1 receptor-associated kinase 4 (IRAK4, Homo sapiens, UniProt Q9NWZ3); enzyme activity; 10 µM; relative to: untreated): 100%

C=CCCC(=O)O
EC10 (HDAC; enzyme activity, inhibitor; day 10, unbound medium concentration): 30 µM

NC1(C(=O)N[C@@H](CCO)c2ccc(Cl)cc2)CCN(c2nc[nH]c3nccc2-3)CC1
time to peak suppression (Akt; item: phosphorylated Akt substrates; mouse BT-474 xenograft, tumour; 100 mg/kg): 4 h

COc1cccc(-c2cc(=O)c3ccccc3o2)c1N
inhibition (CSNK1G1; kinase activity, inhibitor; 0.5 µM): 17%

Cc1cc(NC(=O)c2cccc(NC(=O)/C=C/CN(C)C)c2)ccc1Nc1nccc(-c2cccnc2)n1
remaining activity (p38; 1 µM; relative to: control): 20%

CCNS(=O)(=O)c1ccc(OC)cc1C1(O)CCN(Cc2cccc(Oc3ccccc3OC)c2)CC1
EC50 (human CCR8 F123A mutant (TM3); IP accumulation, agonist): 12 nM

C[C@H]1COCCN1c1nc(-c2cnc(N)cc2C(F)F)nc(N2CCOCC2)n1
GI50 (C33 A): 331 nM

CC1(C)S[C@@H]2[C@H](NC(=O)[C@H](N)c3ccccc3)C(=O)N2[C@H]1C(=O)O
MIC (Klebsiella pneumoniae; clinical isolate RKI-No_164/16): > 16 mg/L

Nc1ccn([C@@H]2O[C@H](CO)[C@@H](O)[C@H]2F)c(=O)n1
Vmax (cytidine deaminase (human); substrate; concentration not given, 37 °C): 146 U/mg

Oc1ccc(-c2nc(-c3ccncc3)c(-c3ccc(F)cc3)[nH]2)cc1
inhibition (CSNK1G1; kinase activity, inhibitor; 0.5 µM): 3%

COc1ccccc1Oc1cccc(CN2CCC(NC(=O)C(CCN3CCCC3)c3ccccc3)CC2)c1 (stereo not shown)
EC50 (human CCR8 L168D mutant (TM4); IP accumulation, agonist): 28 nM

CCCC(C)C(=O)O (stereo not shown)
EC10 (HDAC; enzyme activity, inhibitor; day 4, unbound medium concentration): 7080 µM

NC(=O)c1ccc[n+]([C@@H]2O[C@H](COP(=O)([O-])OP(=O)(O)OC[C@H]3O[C@@H](n4cnc5c(N)ncnc54)[C@H](O)[C@@H]3O)[C@@H](O)[C@H]2O)c1
Km (ADH1 H48S Saccharomyces cerevisiae; enzyme activity, substrate; pH 7.3, 30 °C): 140 µM

Some of these lines once more:
CC1(C)S[C@@H]2[C@H](NC(=O)[C@H](N)c3ccccc3)C(=O)N2[C@H]1C(=O)O
MIC (Klebsiella pneumoniae; clinical isolate RKI-No_164/16): > 16 mg/L

Nc1ccn([C@@H]2O[C@H](CO)[C@@H](O)[C@H]2F)c(=O)n1
Vmax (cytidine deaminase (human); substrate; concentration not given, 37 °C): 146 U/mg

Oc1ccc(-c2nc(-c3ccncc3)c(-c3ccc(F)cc3)[nH]2)cc1
inhibition (CSNK1G1; kinase activity, inhibitor; 0.5 µM): 3%

COc1ccccc1Oc1cccc(CN2CCC(NC(=O)C(CCN3CCCC3)c3ccccc3)CC2)c1 (stereo not shown)
EC50 (human CCR8 L168D mutant (TM4); IP accumulation, agonist): 28 nM

CCCC(C)C(=O)O (stereo not shown)
EC10 (HDAC; enzyme activity, inhibitor; day 4, unbound medium concentration): 7080 µM
